{"data": "Results gathered from unrelated publications", "note": "Each numbered part is a random draw from the data of one study; scales do not carry over between parts.", "chain of UniProt P62344 (whole entry, looked up)": "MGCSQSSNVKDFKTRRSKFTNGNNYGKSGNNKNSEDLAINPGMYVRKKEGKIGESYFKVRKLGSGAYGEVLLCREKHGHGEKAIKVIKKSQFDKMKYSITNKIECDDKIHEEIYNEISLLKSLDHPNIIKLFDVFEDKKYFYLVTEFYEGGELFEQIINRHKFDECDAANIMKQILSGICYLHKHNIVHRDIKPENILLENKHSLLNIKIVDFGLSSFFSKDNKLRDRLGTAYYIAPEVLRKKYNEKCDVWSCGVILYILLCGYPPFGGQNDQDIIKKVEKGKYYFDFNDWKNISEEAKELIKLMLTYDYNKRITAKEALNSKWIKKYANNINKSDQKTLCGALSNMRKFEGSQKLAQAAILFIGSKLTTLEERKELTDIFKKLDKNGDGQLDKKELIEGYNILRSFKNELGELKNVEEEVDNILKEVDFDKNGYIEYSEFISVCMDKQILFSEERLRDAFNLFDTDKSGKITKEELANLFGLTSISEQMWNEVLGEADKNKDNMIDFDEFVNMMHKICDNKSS", "chain of UniProt P31645 (whole entry, looked up)": "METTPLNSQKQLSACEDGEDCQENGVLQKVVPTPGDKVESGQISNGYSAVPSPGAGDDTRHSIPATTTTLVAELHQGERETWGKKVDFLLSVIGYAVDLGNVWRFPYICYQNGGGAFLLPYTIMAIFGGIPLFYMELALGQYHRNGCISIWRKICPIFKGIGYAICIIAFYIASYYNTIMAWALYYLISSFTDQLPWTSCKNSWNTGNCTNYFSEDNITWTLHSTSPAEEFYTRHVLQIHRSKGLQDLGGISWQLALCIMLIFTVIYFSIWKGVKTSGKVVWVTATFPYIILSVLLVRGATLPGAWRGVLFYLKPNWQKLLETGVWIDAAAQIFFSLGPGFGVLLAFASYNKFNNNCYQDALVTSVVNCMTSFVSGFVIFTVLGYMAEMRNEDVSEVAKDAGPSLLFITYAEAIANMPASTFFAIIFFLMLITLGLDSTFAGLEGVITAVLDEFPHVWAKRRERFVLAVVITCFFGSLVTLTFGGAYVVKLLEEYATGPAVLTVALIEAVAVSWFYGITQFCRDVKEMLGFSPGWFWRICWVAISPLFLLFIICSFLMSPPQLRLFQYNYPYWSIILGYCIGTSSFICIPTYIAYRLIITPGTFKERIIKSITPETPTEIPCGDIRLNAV"}
{"data": "Series 1", "organism": "Sarcocystis neurona", "effect on": "parasite activity", "concentration": "10 µM", "time": "96 h"}
{"SMILES": "COc1cc2c(cc1OC)[C@@]13CCN4CC5=CCO[C@H]6CC(=O)N2[C@H]1[C@H]6[C@H]5C[C@H]43", "activity class": "inactive"}
{"SMILES": "Oc1ccc2c3c1O[C@H]1[C@@H](O)CC[C@@]4(O)[C@@H](C2)N(CC2CCC2)CC[C@]314", "activity class": "inactive"}
{"SMILES": "NCCc1ccccn1", "activity class": "inactive"}
{"SMILES": "C[C@]12CC[C@H](O)CC1=CC[C@@H]1[C@@H]2CC[C@]2(C)C(=O)CC[C@@H]12", "activity class": "inactive"}
{"data": "Series 2", "cell line": "mouse MPNST tumor cells", "technique": "high-content nuclear imaging", "item": "cell number", "concentration": "10 µM", "time": "12 h", "setting": "mean of 2 replicates", "reference": "plate mean", "direction": "higher = more cells"}
{"SMILES": "O=C1CN=C(c2cccc(Br)c2)c2oc3ccccc3c2N1", "nuclei count [z-score]": -2.1}
{"SMILES": "O=C(CCCN1CCC(n2c(=O)[nH]c3ccccc32)CC1)c1ccc(F)cc1", "nuclei count [z-score]": 2.46}
{"SMILES": "Cc1ncc(CN2CC=C(c3ccccc3)CC2)c(N)n1", "nuclei count [z-score]": 2.05}
{"SMILES": "CN1CCc2cccc(Cl)c2CC1", "nuclei count [z-score]": 1.45}
{"data": "Series 3", "organism": "Plasmodium berghei", "mode": "inhibitor", "cells": "Huh-7", "strain": "GFP-expressing, liver stage", "concentration": "10 µM", "time": "24 h", "reference": "untreated control"}
{"Compound": "CN(C)C(=S)SSC(=S)N(C)C", "infection rate": "16.7%"}
{"Compound": "Oc1ccc(Cl)cc1", "infection rate": "90.7%"}
{"Compound": "CNC(C)C(O)c1ccccc1 (stereo not drawn)", "infection rate": "102%"}
{"Compound": "COP(=S)(OC)Oc1cc(Cl)c(Cl)cc1Cl", "infection rate": "98.4%"}
{"Compound": "NC(=O)CN1CCCC1=O", "infection rate": "96.8%"}
{"data": "Further values, each from its own experiment"}
{"SMILES": "CC(=O)Nc1c(C(C)=O)c(=O)n(C)c2nc(-c3ccc(Cl)cc3Cl)c(-c3ccc(Cl)cc3)cc12", "target": "Calcium-dependent protein kinase 1 (CDPK1, Plasmodium falciparum, UniProt P62344)", "assay": "cell-free assay, competition with immobilised ligand", "conditions": "1 µM", "quantity": "remaining binding", "result": "95%"}
{"SMILES": "c1ccc(N2CCN(Cc3nc4ccccc4[nH]3)CC2)nc1", "target": "Sodium-dependent serotonin transporter (SLC6A4, Homo sapiens, UniProt P31645)", "assay": "binding, radioligand binding", "quantity": "Ki", "result": "> 10 µM"}
{"note": "Some of these lines once more (series 1):"}
{"SMILES": "NCCc1ccccn1", "activity class": "inactive"}
{"SMILES": "C[C@]12CC[C@H](O)CC1=CC[C@@H]1[C@@H]2CC[C@]2(C)C(=O)CC[C@@H]12", "activity class": "inactive"}
